# Measurements gathered from unrelated publications.
# Numbered parts are unrelated; each lists some results of a single study.

# Study 1
# Target: Interferon regulatory factor 7, full length, phosphomimetic (IRF7, Homo sapiens, UniProt Q92985, residues 1-503, S101K/S471D/S472D/S475D/S476D/S477D/S483D/S484D/S487D)
# UniProt Q92985, sequence (whole entry, unmodified, looked up): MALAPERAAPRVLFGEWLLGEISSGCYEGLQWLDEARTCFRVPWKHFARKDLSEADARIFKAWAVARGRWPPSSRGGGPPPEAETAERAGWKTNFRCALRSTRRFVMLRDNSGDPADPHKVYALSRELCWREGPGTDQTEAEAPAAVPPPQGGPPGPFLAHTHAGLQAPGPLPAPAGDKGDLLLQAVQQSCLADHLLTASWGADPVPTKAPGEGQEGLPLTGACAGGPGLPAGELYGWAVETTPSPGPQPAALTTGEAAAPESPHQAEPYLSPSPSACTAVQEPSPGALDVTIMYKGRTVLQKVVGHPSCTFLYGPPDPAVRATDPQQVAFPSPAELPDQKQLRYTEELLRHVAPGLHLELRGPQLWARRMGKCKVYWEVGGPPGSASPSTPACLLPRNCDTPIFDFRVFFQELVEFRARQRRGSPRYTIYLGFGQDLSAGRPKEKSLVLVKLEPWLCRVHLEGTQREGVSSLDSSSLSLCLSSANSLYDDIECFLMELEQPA
# Technique: protein-binding microarray
# Form: double-stranded DNA, one strand shown
# Medium: in vitro
# Concentration: 250 nM
# Notes: 60-bp whole probe
# Added: salmon DNA 0.4 mg/ml
# Relative to: random background probes
# Direction: higher = stronger binding
# Constant ends, left off below: GCCTAGCAC … GTCTTGATTCGCTTGACGCTGCTG
Oligonucleotide,log fluorescence [z-score]
GACGGTCTCGACTATCGGGACGTGCTA,0.273
CATTCTCTGTTTATGTCTGGGTGCTAG,4.91
TCATATATGTGATTAAAACTGTGCTAG,1.25
CTAAAACTCTTTATTTAAGCGTGCTAG,0.502
TTAGGACTCGGGACTGGGTTAGTGCTA,0.316
GACGGTATCGGTACCGGGACGTGCTAG,0.481
TTAGGTTTCGGTATCGGTTGGTGCTAG,10.3
GACTGTATCCTACTGCTGACGTGCTAG,0.084
AACGGTCTCCTACTGCTGACGTGCTAG,-0.185
TCATTTTTCACCTGCACACTGTGCTAG,0.891
GACGGTTTCGGACTGGTGACGTGCTAG,4.22
TCACATTTTGTTTTTCAACTGTGCTAG,1.17
TTAGGTATCGGTTTCAGTTAGTGCTAG,6.37
TCATTACTAAAATTTCATACTGTGCTA,1.15
TTACGACTGGGTCTCGGTTAGTGCTAG,0.966
TTAGATATAGGGTTTCGATTAGTGCTA,5.98
CTGACCTTTTCCTGAGGCAGGTGCTAG,1.81
GACGGCCTCCTACTGCTGACGTGCTAG,-0.768
GACGGTTTCGACTCTCGGGACGTGCTA,10.6
GACGGTCTCCTTTTACTGACGTGCTAG,1.8

# Study 2
# Target: RING finger protein unkempt homolog, zinc fingers 1-6, SBP tag (UNK, Homo sapiens, UniProt Q9C0B0, residues 30-357)
# UniProt Q9C0B0, sequence (30-357, looked up): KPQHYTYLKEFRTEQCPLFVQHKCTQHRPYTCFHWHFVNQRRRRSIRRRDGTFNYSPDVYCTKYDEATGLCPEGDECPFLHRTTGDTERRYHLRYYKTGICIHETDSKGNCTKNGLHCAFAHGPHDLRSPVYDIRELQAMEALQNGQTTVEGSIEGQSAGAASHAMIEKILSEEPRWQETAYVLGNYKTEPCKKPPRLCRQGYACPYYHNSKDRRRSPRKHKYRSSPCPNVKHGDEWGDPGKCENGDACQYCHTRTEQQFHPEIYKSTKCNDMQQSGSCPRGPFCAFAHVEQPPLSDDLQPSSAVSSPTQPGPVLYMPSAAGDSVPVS
# Technique: RNA Bind-n-Seq
# Form: RNA
# Medium: in vitro
# Concentration: 100 nM
# Notes: RNA with constant flanks, vertebrate orthologous sites, ends assumed
# Relative to: input RNA pool
# Direction: higher = stronger binding
Oligonucleotide,bound/input enrichment
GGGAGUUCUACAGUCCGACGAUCGCAAUGAAAAAGCAGCCCUUCUCCCAGCCCCCUUUUCACUAGGAGAUACAAACGUUACCGUAGAAGAGCAAUUAAACUCAAUAAAUUUAUCUUUUCAGGAUGAUCCAGACUCCAGUACCACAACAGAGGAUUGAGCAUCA,1.2 ratio
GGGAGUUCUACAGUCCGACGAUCUCAGUCUUCCACGUAGGGUUGGCCUCAAAUCUAUAGGAUUUAUGACAAAUGUAUUAUAUCUAGUUAAGUUGAGUUUAAUAUUUUUUUAUUAGCCUGUAAAUAAAGAUGGCAUCUUCUACACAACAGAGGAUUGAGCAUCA,0.694 ratio
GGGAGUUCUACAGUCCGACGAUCUUUUAUUGAUCAGGUCUGUAAAUGUGUACUAAAAAAAUCAGAGUUUAUUUAUAAACAGAAUAGUUUAUUUAAAGACAAGGUCUUUCCUCAUUGUGGUAUGCAUUAAUUCCAUUUGUUACUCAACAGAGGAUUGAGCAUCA,0.113 ratio
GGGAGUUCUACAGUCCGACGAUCGUGGGGAUCGGGGUAGGGUGGGAAGAAGAUGUAUGGAUGUUACCGGCAUUUUUAAGUGUUCAGAGUUUUUUGUGUUUCUCUCUCUCUCUCUCUUUCUCGUUUUGUUGUUUCCCUUUAAUUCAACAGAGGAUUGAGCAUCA,0.676 ratio
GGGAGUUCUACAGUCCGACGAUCCUCCCUGUCACUGUGAUAUUUAAAAUAUGCACAGUCCUAAUUUUGUUUCCUAAAUGAUUCUAGUAAUUUCCUAGCAAUAGCUCUAUCUUACCUGUUAUUUAUCAAUUUCCCCCCAAGGUUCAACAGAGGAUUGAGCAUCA,2.24 ratio
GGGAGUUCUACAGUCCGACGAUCCAGGGUGUACCUGUGGGGCACUGCUGGCCGCUUAUUGUUGUUUAAUUUGUGACCUUGACAUCAUAGAUAGGAUUUUUUUUUUUAUUUAAAGAUAUUAAGACUUAAUUCACUAAAAUUUAUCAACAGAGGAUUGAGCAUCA,0.445 ratio
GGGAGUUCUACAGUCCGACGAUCAUUGAACAAAAAUAUUUCCACUGGCUUUUGCCUGUAAGAAAAAAAAUGUACCCGAGCACAUAGAGCUUUUUAAUAGCACUAACCAAUGCCUUUUUAGAUGUAUUUUUGAUGUAUAUAUCUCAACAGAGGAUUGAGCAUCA,0.691 ratio
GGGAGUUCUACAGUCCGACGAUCCUACUAUAAACAACUCAGGGCAGUAUUCUCGAUAUCCUUACAGUAACCUUAAUCAGGGAUUAGUUAAUAAUACAGGGAUGAAUCAGAAUUUAGGCCUUACGAAUAACACUCCAAUGAAUCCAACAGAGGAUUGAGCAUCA,0.772 ratio
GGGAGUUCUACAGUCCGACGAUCACCCUCAACUAGCUUUGAACAAUGGUACUAUUGAGCUGGUUCAUAAGUUGGUUUUGGGAAUUUAGGUCUUUGAUUUCUCUACUGCUAAUGGUCAGAGAGACAGAAAUUAUAGCCAGGAACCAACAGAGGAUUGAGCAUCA,0.339 ratio
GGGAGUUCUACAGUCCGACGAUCGUCAUCUGAUUGGAUAAAGACCAUCCCGAGUUAUAACCAAACAAAUAGCUCCAUGGACUUCAGAAAUUAUAUGAUGAGAGAUGAGAAUCUGGAACCACUGCCCAAAAACUGGGAGAUGGCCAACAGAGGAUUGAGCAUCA,0.376 ratio
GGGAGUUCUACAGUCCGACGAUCUAUCUUUAGGAUGAAGCUCUUGCACCAGGUGUCACGGGUCUGGAAAACAGAUGGCUUGACGAGUUGUUCUUAUAAAUUAUUGUCUGUGGAACACAAUCCUUUAUAUAUCAACAUCACAGUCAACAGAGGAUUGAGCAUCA,0.686 ratio

# Study 3
# Target: Ras GTPase-activating protein-binding protein 1, full length (G3BP1, Homo sapiens, UniProt Q13283)
# UniProt Q13283, sequence (whole entry, looked up): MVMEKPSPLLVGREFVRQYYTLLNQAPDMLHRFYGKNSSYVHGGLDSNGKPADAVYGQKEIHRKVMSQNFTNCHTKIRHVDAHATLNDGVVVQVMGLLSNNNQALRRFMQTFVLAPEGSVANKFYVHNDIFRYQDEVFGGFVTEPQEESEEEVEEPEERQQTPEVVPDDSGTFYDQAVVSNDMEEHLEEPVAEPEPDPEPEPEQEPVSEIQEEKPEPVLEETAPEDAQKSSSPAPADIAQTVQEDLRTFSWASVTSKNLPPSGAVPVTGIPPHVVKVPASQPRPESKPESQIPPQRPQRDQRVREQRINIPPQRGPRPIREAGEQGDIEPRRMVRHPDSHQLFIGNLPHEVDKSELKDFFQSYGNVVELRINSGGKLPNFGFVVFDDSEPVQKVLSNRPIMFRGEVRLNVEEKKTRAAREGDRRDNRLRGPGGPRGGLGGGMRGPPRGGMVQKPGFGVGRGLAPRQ
# Technique: RNA Bind-n-Seq
# Form: RNA
# Medium: in vitro
# Concentration: 200 nM
# Notes: whole 134-nt RNA, ends assumed
# Added: 150 mM KCl
# Relative to: input library
# Direction: higher = stronger binding
Oligonucleotide,log2 enrichment
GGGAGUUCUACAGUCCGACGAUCAGUCCUGUGCUACACAUCGUAUGUACCGAAUCGGGGUUUUUGGUUUUUGGUUUUUGGGAAAGUAUUAUGUUACGCCGUUCGGAUCUGCACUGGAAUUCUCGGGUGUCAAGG,-1.13
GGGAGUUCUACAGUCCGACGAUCCUGUGCUACACAUCGUAUGUACCGAAUCGGGUUUUUUGGGGUUUUUUGGGGUUUUUUGGGGAAAGUAUUAUGUUACGCCGUUCGGAUCUGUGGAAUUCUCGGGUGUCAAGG,-0.548
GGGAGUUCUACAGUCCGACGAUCUCCUGUGCUACACAUCGUAUGUACCGAAUCGGUUUUUUGGGGUUUUUUGGGUUUUUUGGGAAAGUAUUAUGUUACGCCGUUCGGAUCUGCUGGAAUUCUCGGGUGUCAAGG,-0.335
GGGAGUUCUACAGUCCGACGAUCCAAGUCCUGUGCUACACAUCGUAUGUACCGAAUCGGGUGGGUUUUUGGGUUUGGGAAAGUAUUAUGUUACGCCGUUCGGAUCUGCACUUCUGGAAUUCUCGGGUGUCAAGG,0.238
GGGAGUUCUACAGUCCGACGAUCAGUCCUGUGCUACACAUCGUAUGUACCGAAUCGGGAAAGGGAAAAAAAGGGUUUGGGAAAGUAUUAUGUUACGCCGUUCGGAUCUGCACUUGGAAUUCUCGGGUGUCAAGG,-0.226
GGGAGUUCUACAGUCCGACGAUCCAAGUCCUGUGCUACACAUCGUAUGUACCGAAUCGGGGCCGGGCCGGGGCCGGGGAAAGUAUUAUGUUACGCCGUUCGGAUCUGCACUUCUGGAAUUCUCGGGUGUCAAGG,0.0325
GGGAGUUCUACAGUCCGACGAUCCUCAAGUCCUGUGCUACACAUCGUAUGUACCGAAUCGGAAAGGAAAGGAAAGGAAAGUAUUAUGUUACGCCGUUCGGAUCUGCACUUCCAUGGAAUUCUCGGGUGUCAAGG,-0.655
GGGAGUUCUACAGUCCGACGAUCAGUCCUGUGCUACACAUCGUAUGUACCGAAUCGGAAAAAAAGGUUUUUUUGGUUUGGAAAGUAUUAUGUUACGCCGUUCGGAUCUGCACUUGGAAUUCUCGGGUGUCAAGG,-1.73
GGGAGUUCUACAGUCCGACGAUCUGUGCUACACAUCGUAUGUACCGAAUCGGGGUUUUUUUGGGGUUUUUGGGGUUUUUUUGGGGAAAGUAUUAUGUUACGCCGUUCGGAUCUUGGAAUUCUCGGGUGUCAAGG,-0.495
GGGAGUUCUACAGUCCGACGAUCCAAGUCCUGUGCUACACAUCGUAUGUACCGAAUCGGAAAAAGGAAAAAGGUUUGGAAAGUAUUAUGUUACGCCGUUCGGAUCUGCACUUCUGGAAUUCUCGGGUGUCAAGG,-1.44

# Study 4
# Target: RNA binding protein fox-1 homolog 2, RRM domain, GST-SBP tag (RBFOX2, Homo sapiens, UniProt O43251-10, residues 100-194)
# Technique: RNA Bind-n-Seq
# Form: RNA
# Medium: in vitro
# Concentration: 365 nM
# Notes: natural RNA segment, single round, ends assumed
# Relative to: no-protein control
# Direction: higher = stronger binding
# Target sequence (chain): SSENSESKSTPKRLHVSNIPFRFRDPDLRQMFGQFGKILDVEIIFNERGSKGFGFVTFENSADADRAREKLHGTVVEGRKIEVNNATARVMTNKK
Oligonucleotide,RBNS enrichment (R)
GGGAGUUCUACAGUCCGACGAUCCUAUCCUUUAUGCAGUAUACAAGGAGAACUGUCCUGUAGGAUAUUCUCUUCCUGAUGGUGCAGAACCCAGAAUUAGAAGUUUGUGGUUACAGCAUACUCUGUCCUUCAGAUGGAAUUCUCGGGUGCCAA,0.287
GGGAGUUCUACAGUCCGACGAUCAUCAUCACCUGCUCCACUCUCAAUAUGGCUUUUAUCAGCAUCUUUUCUCUGUAGCUCCAGGGGAAUCUUUUUCUCUAAAACGUUUAUGCCCUCGCUUUGGCUAGAAACACUGGAAUUCUCGGGUGCCAA,0.585
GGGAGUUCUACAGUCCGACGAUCUGUAUUUCAGUGCCUCCAGCUUUGCACUUGAGAGACAAGUGUUUACUGCUGUUUGACUUUCCCCUUGACAUUUCUCAGAAAAAUGCAGGGCUGCAGCUGAGAGCAGACUGUGGAAUUCUCGGGUGCCAA,0.504
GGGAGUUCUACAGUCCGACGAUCCACCUAAAAGGGUUUUGCUUCGGGAUUUUUGUUUGUUCGGUUUUUUUGUUUUUUUAAAGAAAAAGAAAAAUGAGAAGAAAAAAAUAAAAGCUCCAGCGUCUUUCUUAUAAUGGAAUUCUCGGGUGCCAA,0.837
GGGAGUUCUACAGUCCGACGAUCAAGCCUCCAAUGUAUUACCUACCAUGCGCAUGAAUAAUUUUCUUCCAUGGCUUUUACACUGUCAACGGCUUUACCUACUUUUUAAAAUUAAGUCUUUGAUUUUAUGAUUUUGGAAUUCUCGGGUGCCAA,0.323
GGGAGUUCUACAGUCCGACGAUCAACCCUGCAUUGGGAUAUCGAAGCACUGCUUAGGUUCUGAGGUGUGGGUUCCCUGCCACCCAGGCAAACAGGCUGAAGAUUCUCACCUUUUCUUUCCAGUGUGAUUACACUGGAAUUCUCGGGUGCCAA,0.174
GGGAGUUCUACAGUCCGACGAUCCUCUGCUCCUUCCUCCUUCAGUGCAGCCCCUCUUGGGUGGUUUAUUGGGCAGGAGGCCACCAUCAUUUCUCCUCAGAAGCAAACCUCAGUGCCUGAGACUUUCCUGCCACUGGAAUUCUCGGGUGCCAA,0.51
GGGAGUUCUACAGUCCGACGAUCUUUCUCAGAGUCUUUUUUUUUUUUUGAGACAGAGUCUCGCUGUUACCCAGGCUGGAGUGCAAUGGCGCAAACUUGGCUCACUGCAACCUCUGCCCCCUGGGUUCAAGCGAUGGAAUUCUCGGGUGCCAA,0.365
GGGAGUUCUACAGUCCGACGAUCAAUUCACUUUAUACAUUAUUAAUAGUAGAUAAAUUUGUGUAAAAUGUAUCGCUGCUGUCCAGCAUGCUUUUCUUCUUUUUAUCCAAACAUGAGGCCAGGAGGAUAAUUAAUGGAAUUCUCGGGUGCCAA,6.03

# A few entries again (study 3):
Oligonucleotide,log2 enrichment
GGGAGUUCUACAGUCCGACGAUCUCCUGUGCUACACAUCGUAUGUACCGAAUCGGUUUUUUGGGGUUUUUUGGGUUUUUUGGGAAAGUAUUAUGUUACGCCGUUCGGAUCUGCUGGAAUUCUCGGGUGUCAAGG,-0.335
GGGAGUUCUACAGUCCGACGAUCCAAGUCCUGUGCUACACAUCGUAUGUACCGAAUCGGGUGGGUUUUUGGGUUUGGGAAAGUAUUAUGUUACGCCGUUCGGAUCUGCACUUCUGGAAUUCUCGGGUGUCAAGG,0.238
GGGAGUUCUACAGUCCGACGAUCAGUCCUGUGCUACACAUCGUAUGUACCGAAUCGGGAAAGGGAAAAAAAGGGUUUGGGAAAGUAUUAUGUUACGCCGUUCGGAUCUGCACUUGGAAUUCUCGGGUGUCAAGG,-0.226
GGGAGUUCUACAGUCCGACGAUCCAAGUCCUGUGCUACACAUCGUAUGUACCGAAUCGGGGCCGGGCCGGGGCCGGGGAAAGUAUUAUGUUACGCCGUUCGGAUCUGCACUUCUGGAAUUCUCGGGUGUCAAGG,0.0325
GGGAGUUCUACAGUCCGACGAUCCUCAAGUCCUGUGCUACACAUCGUAUGUACCGAAUCGGAAAGGAAAGGAAAGGAAAGUAUUAUGUUACGCCGUUCGGAUCUGCACUUCCAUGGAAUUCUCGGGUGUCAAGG,-0.655
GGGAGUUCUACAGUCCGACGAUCAGUCCUGUGCUACACAUCGUAUGUACCGAAUCGGAAAAAAAGGUUUUUUUGGUUUGGAAAGUAUUAUGUUACGCCGUUCGGAUCUGCACUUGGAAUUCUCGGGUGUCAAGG,-1.73
